Measured values pooled from the literature.
Numbered parts are unrelated; each lists some results of a single study. Changes are numbered by the printed parent chain.

Set 1 — target: CCNB1, cyclin fold, Cln2 fusion (human); technique: yeast growth competition, sequencing; medium: yeast; setting: weak parent motif; relative to: not given; reading: higher = stronger binding; quantity: normalised enrichment score
Parent: PPP1R3F docking peptide (human); VAPRRVLFADEAL
VAPRAVLFADEAL [R5A]: 0.436
VAPRRVLLADEAL [F8L]: 0.139
VAPARVLFADEAL [R4A]: 0.592
VAPRRVLFAAEAL [D10A]: 0.959
VAPRRALFADEAL [V6A]: 0.338
VAPRRVAFADEAL [L7A]: 0.677
VAPRAVAFADEAL [R5A L7A]: -0.14
VAPRKVLLADEAL [R5K F8L]: 0.185

Set 2 — technique: RNA Bind-n-Seq; form: RNA; medium: in vitro; tested at: 200 nM; setting: whole 134-nt RNA, ends assumed; together with: 150 mM LiCl; relative to: input library; reading: higher = stronger binding; quantity: log2 enrichment; all molecules: 7-deaza-guanosine replaces G
Target: Fragile X messenger ribonucleoprotein 1, C-terminal low-complexity region (Fmr1, Mus musculus, UniProt P35922)
Constant ends, left off below: GGGAGUUCUACAGUCCGACGAUC … UGGAAUUCUCGGGUGUCAAGG
UCAUUCUAUACAGCCUUUUGUUUCAUUAGGAUCAGGCAGCUAGAGACAUGAAGAGGCUUGAAGAAAAGGACAAGGAAAGAAAAAACGUAA: -2.43
AGUCCUGUGCUACACAUCGUAUGUACCGAAUCGGGGUUUUGGGUUUUGGGUUUUGGGAAAGUAUUAUGUUACGCCGUUCGGAUCUGCACU: -1.67
AAAAUAAGCCUAAGAAAGAAUUAAUUAAAGUUCUGAUUCAGAGGGGAUAUGAUUCGGAUCCUGUGAAGGCCUGGAAAGAAGCCCAGCAAA: -2.45
GCAGGAAGUAAAAACAAAUGGAAAUGCUUCGGAUAGUGGCAGGGGUUGGGGUUGCUAAGGAAAGGGUGGGAUGGGAGUGGGUAAAGAGUU: 1.4
CUGUGCUACACAUCGUAUGUACCGAAUCGGGGAAAAAGGGGAAAAAAAGGGGUUUUUGGGGAAAGUAUUAUGUUACGCCGUUCGGAUCUG: -0.347
UGGCCCUGGUGGCAUGCGGGGAGGAAGAGGUGGCCUCAUGGAUCAUGGUGGUCCCGGUGGAAUGUUCAGAGGUGGCCGUGGUGGAGACAG: -0.155
UCCUCAAGUCCUGUGCUACACAUCGUAUGUACCGAAUCGGAAAGGUGGAGGAAAGUAUUAUGUUACGCCGUUCGGAUCUGCACUUCCAGC: -1.5
CUCAAGUCCUGUGCUACACAUCGUAUGUACCGAAUCGGAAGGAAGGGGAAGGGAAAGUAUUAUGUUACGCCGUUCGGAUCUGCACUUCCA: -0.246

Set 3 — technique: protein-binding microarray; form: double-stranded DNA, one strand shown; medium: in vitro; tested at: 0.8 µM; setting: whole 60-bp probe, no competitor; reading: higher = stronger binding; quantity: fluorescence intensity; constant ends, left off below: … GTCTTGATTCGCTTGACGCTGCTG
Target: Centromere-binding protein 1, full length, N-terminal tag (CBF1, Saccharomyces cerevisiae, UniProt P17106, residues 1-351)
Sequence of UniProt P17106 (whole entry, looked up): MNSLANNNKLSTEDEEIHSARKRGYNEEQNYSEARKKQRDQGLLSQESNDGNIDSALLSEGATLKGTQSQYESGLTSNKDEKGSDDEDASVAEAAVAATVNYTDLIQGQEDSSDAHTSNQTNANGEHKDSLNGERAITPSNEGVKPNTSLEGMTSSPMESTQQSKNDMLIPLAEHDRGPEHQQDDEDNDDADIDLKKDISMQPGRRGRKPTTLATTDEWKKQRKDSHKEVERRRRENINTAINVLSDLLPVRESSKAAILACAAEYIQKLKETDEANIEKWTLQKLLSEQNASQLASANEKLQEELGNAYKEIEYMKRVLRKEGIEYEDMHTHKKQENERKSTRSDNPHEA
CTAGTTGTGATCCGTCACGTGTATGCAAAACGCTTC: 12600 a.u.
GAAGTCACGTACGATAACGTGATCCTGCCACAGTAG: 3080 a.u.
CTAGTGGCTCACACACATGTGGGCGCTATCCCCTTC: 530 a.u.
CCTAACTACTATAGTCAGGAGGTATAGCTTCGTACA: 585 a.u.
TGTACGAAGCTATACGTGATGGTTATAGTAGTTAGG: 603 a.u.
CTATCTCGACTATTTTGCGTGACACTTCCTTAGTTC: 607 a.u.
CTACCCCAAAGTGGTCATGTTAAGGAGGGCATTTTC: 490 a.u.
CTAACTTTAGAACACCACCAACAGATCGTTCTCTTC: 519 a.u.
GAATACTATTTTCATCAGGGCCAACAAAAAAAATAG: 543 a.u.
GAACGCTACAAACGTGGTGGAGTTTTAACCCTATAG: 531 a.u.
GAAAGTGCAGAAGATCACGCGGTTTAATTCGTCTAG: 1530 a.u.
CTACTAATAAGAACGGTGATGATGGTTATTATGTTC: 525 a.u.
GAAGGTGTCTCTAGTGATGTCAATGAACGGATGTAG: 534 a.u.
CTAGATATGGACAAACACGTTGTTTTGATTTCTTTC: 659 a.u.
GAAGCCTTTTCAGAGGTGATGAGCAATCTCGATTAG: 532 a.u.
GAAACGAAAATAAACCACATGGGAATATGTTAATAG: 656 a.u.

Set 4 — technique: RNA Bind-n-Seq; form: RNA; medium: in vitro; tested at: 365 nM; relative to: no-protein control; reading: higher = stronger binding; quantity: RBNS enrichment (R)
Target: RNA binding protein fox-1 homolog 2, RRM domain, GST-SBP tag (RBFOX2, Homo sapiens, UniProt O43251-10, residues 100-194)
Setting: natural RNA segment, single round, ends assumed
Constant ends, left off below: GGGAGUUCUACAGUCCGACGAUC … UGGAAUUCUCGGGUGCCAA
GGUCUAUUUCCUGUUGCCGCUCUGCAGCCUGGACCUGUGGACCCUGGUUGUAAAGAGUAAAACUGUAUCUUAGGAAACCAGUGUCACCUUUUUCACCUUUUAAUUUUAUA: 0.364
CGUGUCCUGCCACUAUGCCUGUAUUGCUGAGUGCCACCCAAGUCCUCUAUUUGGCUGUAGUCUGCUCUGGGGCUUUCACUGUCAGUCUGGGGCAUGGGCUGAGCAAGUAU: 0.642
AAAAAAAAAAAGUCAUUUUAGCUGCCACCUAUGACUUUGCCACAUAGCUGAACUGUGUUUACUGGAAAAAUUCAGAGGCCUAAAGUUUAAAAUAAAAUUUACUUCCGACG: 0.604
GGGUCCCCUGGGCCAGCCAGCGAUUCUACUCCCUCAACGUGUAUCUCUCCUUCCCUCCCACCACCACCAGGACCCCCGGGGCUGUAGCCUCCUCUCUGAUCAGAGCCGAC: 0.782
UCCUACCACUUAUUACAACAGUGAGGACUGGAUUCUUGAUGUCUUAAUUUCUCAUUUAUUUGUCUAGAAAAUCCAUAAUGAUAUAGGACAUUUAUACCGAGUGAGAUCAU: 0.376
UGAGUUAUGUAAGAUUUAAAUAAAAGUUUGCUACCAAGAUGAUUGCCUUAUUGAAUAGGUCACUAUUAAAUUCCUUUAAAUGUUGAUAUCUGCCAUUUGUGGAAACAACG: 0.522
CUCCUCCAUGCCUGACCAACAGGCCCAGCUUUCCCUGCCAGGCCCUUUGCACUGAGGACACAGAUCCCGGGGAGCUGUGAGGGCCACCGGUGGGCAGUGGGUGGAUCCUG: 0.375
GUGUCUGUCAUGAAACCACUAACUGCAUUCCUGACUGAAGAGCCAUCUGUCAUUUAUUGGGGAAGGUCUUCAGUUGAGCUCUCAGCCUUAGGAAGGAAGCACGUGGAGGA: 0.38
